Results pooled from the literature.
Each line is one published result; not all experiments were run side by side. Numbers after ± are the reported error.
PTGER1: Prostaglandin E2 receptor EP1 subtype (PTGER1, Homo sapiens, UniProt P34995)
CDK9 with cyclin T1: Cyclin-dependent kinase 9, with cyclin T1 (CDK9, Homo sapiens, UniProt P50750)
Melanocortin receptor 3: Melanocortin receptor 3 (Mus musculus, UniProt P33033)
GRM4: Metabotropic glutamate receptor 4 (GRM4, Homo sapiens, UniProt Q14833)
SIRT5: NAD-dependent protein deacylase sirtuin-5, mitochondrial (SIRT5, Homo sapiens, UniProt Q9NXA8)

| SMILES | target | assay | test system | conditions | EC50 |
| --- | --- | --- | --- | --- | --- |
| O=C(O)/C=C/c1cccc(NC(=O)c2cc(-c3cccc(F)c3)ccc2F)c1 | PTGER1 | calcium signal, agonist, fluorescence |  |  | > 10000 nM |
| COc1ccc(OC[C@H]2c3cccn3CC(=O)N2Cc2cccc(F)c2)cc1 | Glutamate NMDA receptor; Grin1/Grin2c (Rattus norvegicus, UniProt P35439+Q00961) | ion current, agonist, two-electrode voltage clamp |  | oocytes | 700 nM |
| Cc1cc[n+]2c3c1ccc1c(C)cc[n+](c13)[Ir-3]213([c]2ccccc2-c2ccc4ccc(Cl)cc4[n+]21)[c]1ccccc1-c1ccc2ccc(Cl)cc2[n+]13.F[P-](F)(F)(F)(F)F | CDK9 with cyclin T1 | enzyme activity, inhibitor |  |  | > 1000 nM |
| O=C(O)/C=C/c1cccc(NC(=O)c2cc(-c3ccc(F)cc3)ccc2F)c1 | Prostaglandin D2 receptor (PTGDR, Homo sapiens, UniProt Q13258) | calcium signal, agonist, fluorescence |  |  | > 10000 nM |
| CC(=O)N[C@@H](Cc1cnc[nH]1)C(=O)N[C@H](Cc1ccc(C(C)(C)C)cc1)C(=O)N[C@@H](CCCN=C(N)N)C(=O)N[C@@H](Cc1c[nH]c2ccccc12)C(N)=O | Melanocortin receptor 3 | reporter gene, agonist |  |  | > 100000 nM |
| COc1cc[n+]2c3c1ccc1c(OC)cc[n+](c13)[Rh-3]213([c]2ccccc2-c2ccc4ccc(Cl)cc4[n+]21)[c]1ccccc1-c1ccc2ccc(Cl)cc2[n+]13.F[P-](F)(F)(F)(F)F | CDK9 with cyclin T1 | enzyme activity, inhibitor |  |  | > 1000 nM |
| C#CC[C@H](NC(=O)[C@H](Cc1ccccc1)NC(=O)[C@H](C)NC(=O)[C@H](CC(N)=O)NC(=O)[C@H](Cc1c[nH]c2ccccc12)NC(=O)[C@H](CCCNC(=N)N)NC(=O)[C@@H](Cc1ccccc1)NC(=O)[C@H](Cc1c[nH]cn1)NC(=O)[C@H](CN=[N+]=[N-])NC(=O)[C@@H](N)Cc1ccc(O)cc1)C(=O)N[C@@H](Cc1ccc(O)cc1)C(N)=O | Melanocortin receptor 3 | agonist |  |  | 51 ± 9.3 nM |
| CC(=O)Nc1ccc(SCC(=O)c2cc(C)n(-c3ccc(S(N)(=O)=O)cc3)c2C)cc1 | GRM4 | calcium signal, positive allosteric modulator |  |  | > 10000 nM |
| O=C(Nc1cc(F)ccn1)C12CC1/C(=N\O)c1ccccc1O2 (single isomer, unassigned; (-)) | GRM4 | calcium mobilisation, positive allosteric modulator | CHO hmGluR4/Gqi5 | with: glutamate EC20 | 1300 nM |
| Clc1ccc2ccc3[n+](c2c1)[Rh-3]12([c]4ccccc4-3)([c]3ccccc3-c3ccc4ccc(Cl)cc4[n+]31)[n+]1cccc3ccc4ccc[n+]2c4c31.F[P-](F)(F)(F)(F)F | CDK9 with cyclin T1 | enzyme activity, inhibitor |  |  | > 1000 nM |
| N[C@@H](Cc1c[nH]c2ccc(OCc3ccc(-c4ccccc4)cc3)cc12)C(=O)O | Large neutral amino acids transporter small subunit 1 (SLC7A5, Homo sapiens, UniProt Q01650) | leucine uptake | HT-29 | with: [3H]-L-leucine | 19000 nM |
| O=C(/C=C(\O)C(F)(F)C(F)(F)F)c1cccnc1 | Formate-nitrite transporter (Plasmodium falciparum, UniProt O77389) | cell viability, resazurin | yeast expressing Formate-nitrite transporter | 72 h, L-lactate medium | 60 nM |
| O=C(c1cc2c(s1)CCCCC2)N1CCC(n2c(=O)[nH]c3ccccc32)CC1 | Short transient receptor potential channel 6 (TRPC6, Homo sapiens, UniProt Q9Y210) | ion current, agonist, patch clamp |  |  | 450 nM |
| Nc1nc2c(cc(F)c3ncccc32)s1 | KCNN4/CALM1 (Homo sapiens, UniProt O15554+P0DP23) | ion current, activator, patch clamp |  |  | > 30000 nM |
| CCOC(=O)C1=CN([C@@H]2O[C@H](CO)[C@@H](O)[C@H]2O)C=CC1 | SIRT5 |  |  |  | 88000 nM |
| O=P(O)(O)OP(=O)(O)OP(=O)(O)OCC1OC(n2cnc3c(Cl)ncnc32)C(O)C1O (centres unmarked) | P2X purinoceptor 2 (P2rx2, Rattus norvegicus, UniProt P49653) | ion current, agonist, two-electrode voltage clamp |  | oocytes | > 300000 nM |
| O=C(O)CCNC(=S)NCCCC[C@H](NS(=O)(=O)c1cccc(F)c1)C(=O)N[C@@H](Cc1c[nH]c2ccccc12)C(=O)NC1CCC1 | SIRT5 | thermal stabilisation, ITDRF-CETSA | HEK293T | 2 h, 52 °C | 900 nM |
| Clc1ccc2ccc3[n+](c2c1)[Ir-3]12([c]4ccccc4-3)([c]3ccccc3-c3ccc4ccc(Cl)cc4[n+]31)[n+]1ccc(Br)cc1-c1cc(Br)cc[n+]12.F[P-](F)(F)(F)(F)F | CDK9 with cyclin T1 | enzyme activity, inhibitor |  |  | 63.1 nM |
| Nc1ncnc2c1ncn2[C@@H]1O[C@H](CO)[C@@H](O[C@H]2O[C@H](CO)[C@@H](OP(=O)(O)O)[C@H](OP(=O)(O)O)[C@H]2O)[C@H]1O | Inositol 1,4,5-trisphosphate-gated calcium channel ITPR1 (Itpr1, Rattus norvegicus, UniProt P29994, del318-332/R504Q) | Ca2+ release, agonist | permeabilized DT40 cells |  | 4210 nM |
| O=C(O)/C=C/c1cccc(NC(=O)c2cc(-c3ccccc3)ccc2F)c1 | PTGER1 | calcium signal, agonist, fluorescence |  |  | > 10000 nM |
| Cc1[nH]c2ccccc2c(=O)c1-c1ccc(Oc2ccc(OC(F)(F)F)cc2)cc1 | cob (Babesia microti, UniProt A0A0K3AQ17) | cytochrome c reductase activity, inhibitor | Babesia microti, mitochondria | with: decylubiquinol | 120 ± 12 nM |
| CC[C@H](C)NC(=O)/C(=C\Nc1ccc(Cl)cc1)C(=O)c1ccccc1Cl | Gamma-aminobutyric acid receptor subunit alpha-4/beta3/delta (Homo sapiens, UniProt O14764+P28472+P48169) | GABA current potentiation, positive modulator, two-electrode voltage clamp | Xenopus laevis oocytes | 30 s preincubation, with: GABA EC10 | 450 ± 100 nM |
| C[C@H](NC(=O)[C@H](CC(N)=O)NC(=O)[C@H](Cc1c[nH]c2ccccc12)NC(=O)[C@H](CCCNC(=N)N)NC(=O)[C@@H](Cc1ccccc1)NC(=O)[C@H](Cc1c[nH]cn1)NC(=O)[C@H](CN=[N+]=[N-])NC(=O)[C@@H](N)Cc1ccc(O)cc1)C(=O)N[C@@H](Cc1ccccc1)C(=O)N[C@@H](CN=[N+]=[N-])C(=O)N[C@@H](Cc1ccc(O)cc1)C(N)=O | Melanocortin receptor 3 | agonist |  |  | 59 ± 5.8 nM |
| COc1ccc(CNC(=O)[C@H]2CN(C(=O)CCl)CCN2S(=O)(=O)c2ccc(OC)cc2)cc1 | Non-POU domain-containing octamer-binding protein (Homo sapiens, UniProt Q15233) |  |  |  | 2200 nM |
| COc1ccc(C(=O)c2c(C(=O)NCCCN(C)C)oc3ccc(Cl)cc3c2=O)cc1OC | Growth hormone secretagogue receptor type 1 (GHSR, Homo sapiens, UniProt Q92847) | calcium signal, agonist |  |  | ~35 nM |
| CCc1nc(-c2ccc(-c3ccc(CCC(N)(CO)COP(=O)(O)O)cc3)cc2)co1 (centres unmarked) | Sphingosine 1-phosphate receptor 4 (S1PR4, Homo sapiens, UniProt O95977) | β-arrestin recruitment, agonist |  |  | 19.8 nM |

For quick reference, copied from above:
| SMILES | target | assay | test system | conditions | EC50 |
| --- | --- | --- | --- | --- | --- |
| O=C(c1cc2c(s1)CCCCC2)N1CCC(n2c(=O)[nH]c3ccccc32)CC1 | Short transient receptor potential channel 6 (TRPC6, Homo sapiens, UniProt Q9Y210) | ion current, agonist, patch clamp |  |  | 450 nM |
| Nc1nc2c(cc(F)c3ncccc32)s1 | KCNN4/CALM1 (Homo sapiens, UniProt O15554+P0DP23) | ion current, activator, patch clamp |  |  | > 30000 nM |
| CCOC(=O)C1=CN([C@@H]2O[C@H](CO)[C@@H](O)[C@H]2O)C=CC1 | SIRT5 |  |  |  | 88000 nM |
| O=P(O)(O)OP(=O)(O)OP(=O)(O)OCC1OC(n2cnc3c(Cl)ncnc32)C(O)C1O (centres unmarked) | P2X purinoceptor 2 (P2rx2, Rattus norvegicus, UniProt P49653) | ion current, agonist, two-electrode voltage clamp |  | oocytes | > 300000 nM |
